# Measurements from different studies.
# INSR: Insulin receptor (INSR, Homo sapiens, UniProt P06213)
Structure (SMILES),target,test,conditions,how to read,measurement,value
O=C(Cc1ccc(OCc2ccccc2)cc1)NC1(C(=O)O)CCN(C(=O)c2ccc(-c3cccc(Cl)c3)cc2)CC1,INSR,"enzyme activity, inhibitor",10 µM,,activity vs control,117%
C=CC(=O)N1Cc2nc(-c3cc(-c4cc(Cl)cnc4Cl)c(F)cc3F)n(-c3ccncn3)c2C1,INSR,cell-free assay,1 µM,,inhibition,6.1%
CNC(=O)C1CCN(c2cc(C)c(F)cc2NC(=O)c2ccc(-c3cc(O)ccc3C)c(C)c2)CC1,INSR,"binding, competition with immobilised ligand",1 µM,,remaining binding,83%
CNC(=O)C[C@H](Cc1ccc(C#N)cc1)NC(=O)c1cc(-c2ccc(CN[C@H](C)c3ccc(C)cc3)o2)ccc1Cl,"Insulin receptor, phosphorylated (INSR, Homo sapiens, UniProt P06213)","enzyme activity, inhibitor",1 µM,,activity vs control,102%
CN1CC[C@@H](COc2cnc(C#N)cc2-c2ccn3nc(NC(=O)C4CC4)cc3c2)C1,INSR,"enzyme activity, inhibitor",1 µM,,inhibition,4%
C=CC(=O)Nc1cccc(-c2cnc3[nH]cc(C(=O)NC(C)(C)C)c3n2)c1,INSR,"enzyme activity, inhibitor",0.1 µM,,inhibition,3%
Cc1ccc(C)c(-c2ccc3nc(NC(=O)C4CCCCC4)nn3c2)c1,INSR,"enzyme activity, Dundee kinase panel",10 µM,,remaining activity,77%
COC(=O)[C@@]1(C)C=C(C(=O)Nc2cccc(C(=O)Nc3ccc(Nc4nccc(-c5cccnc5)n4)c(C)c3)c2)C(=O)CC1,INSR,"enzyme activity, inhibitor, radiometric",1 µM,,remaining activity,101%
CC(=O)N1c2ccc(-c3ccc(CNC(=O)c4cn5cc(-c6cnc(N)nc6)nc(N6CCOCC6)c5n4)cc3)cc2CC[C@@H]1C,INSR,KINOMEscan,10 µM,,remaining binding,87%
COc1ccc(NC(=O)Nc2ccc3c(c2)C(=O)N(C(C)CO)CC(C)C(CN(C)Cc2ccc4c(c2)OCO4)O3)cc1 (stereo not shown),"Insulin receptor, activated (INSR, Homo sapiens, UniProt P06213)",kinase activity,0.03 µM,reference: control,remaining activity,96%
Cc1cccc(-c2ccc3nc(NC(=O)C4CCCCC4)nn3c2)c1,INSR,"enzyme activity, Dundee kinase panel",10 µM,,remaining activity,115%
COc1cc(Nc2nc(C)cc(-c3cnn4nc(OC)ccc34)n2)cc(C(F)(F)F)c1,INSR,inhibitor,1 µM,reference: control,remaining activity,71%
Cc1cccc(O[C@H]2CCC[C@@H](C(C)CNCc3ccncc3)C2)c1 (relative stereo),INSR,cell-free assay,10 µM,,inhibition,-3%
NC(=O)C[C@H]1CCc2sc3ncnc(O[C@H]4CC[C@H](N5CCOCC5)CC4)c3c21,INSR,"enzyme activity, inhibitor",10 µM,,inhibition,15%
O=C=[N][Ru-4]123([n]4c5ccc(O)cc5c5c6c(c7cc(F)c[n+]1c7c54)C(=O)NC6=O)[S+]1CC[S+]2CC[S+]3CC1 (stereo not shown),INSR,enzyme activity,"100 nM, human enzyme, added: 10 µM ATP",reference: untreated,remaining activity,104%
Nc1nc(Nc2ccccc2)sc1C(=O)c1ccccc1,INSR,"enzyme activity, inhibitor",10 µM,,remaining activity,63%
C=C1C[C@]2(C(=O)OC)C=C(C(=O)Nc3cccc(C(=O)Nc4ccc(Nc5nccc(-c6cccnc6)n5)c(C)c4)c3)C(=O)[C@H]1C2,INSR,"binding, competition with immobilised ligand",1 µM,,remaining binding,82%
C=CC(=O)N1CCCC(n2c(=O)c3ncccc3n(Cc3ccc(Oc4ccccc4)cc3)c2=O)C1 (stereo not shown),INSR,"cell-free assay, competition with immobilised ligand",1 µM,,remaining binding,100%
C=CC(=O)N1CCc2ccc(-n3c(=O)ccc4cnc5ccc(-c6cnn(C)c6)cc5c43)cc21,INSR,KINOMEscan,1 µM,reference: DMSO control,remaining binding,75%
CNC1C[S+]2CC[S+]3CC[S+](C1)[Ru-4]321([N]=C=S)[n]2c3ccc(OC)cc3c3c4c(c5cc(F)c[n+]1c5c32)C(=O)NC4=O (stereo not shown),INSR,KinomeScan,0.1 µM,reference: untreated,remaining binding,99%
CN1CCN(c2ccc(Nc3ncc(Cl)c(Nc4ccccc4P(C)(C)=O)n3)cc2Br)CC1,INSR,"enzyme activity, inhibitor",0.1 µM,,inhibition,87.9%
CNS(=O)(=O)Nc1nccc(Cc2c(C)c3ccc(Oc4ncccc4F)cc3oc2=O)c1F,INSR,"cell-free assay, competition with immobilised ligand",10 µM,,remaining binding,97%
COc1c(OCCCN2CCOCC2)ccc2c1N=C(NC(=O)c1cnc(N)nc1)N1CCN=C21,INSR,"kinase activity, inhibitor",1 µM,reference: untreated control,remaining activity,81%
CN1CCN(Cc2ccc(NC(=O)c3cccc(C#Cc4cnc(N)c5ncccc45)c3)cc2C(F)(F)F)CC1,INSR,"cell-free assay, competition with immobilised ligand",0.5 µM,,remaining binding,84%
Nc1ncc2c(n1)-c1c([nH]c3ccc(C4=CCOCC4)cc13)CCC2,INSR,"binding, competition with immobilised ligand",1 µM,,remaining binding,92%
